Results gathered from unrelated publications.
Protocols differ between the studies behind these lines. Values joined by “and” are separate records of one study, mostly repeats; a detail may differ.
Target: Casein kinase I isoform gamma-2 (CSNK1G2, Homo sapiens, UniProt P78368)

COc1ccc(NC(=O)Nc2ccc3c(c2)C(=O)N(C(C)CO)CC(C)C(CN(C)Cc2ccc4c(c2)OCO4)O3)cc1 (stereo not shown)  remaining binding (binding, competition with immobilised ligand; 10 µM): 100%
CN1CC[C@@H](COc2cnc(C#N)cc2-c2ccn3nc(NC(=O)C4CC4)cc3c2)C1  inhibition (enzyme activity, inhibitor; 1 µM): 11%
COc1c(OCCCN2CCOCC2)ccc2c1N=C(NC(=O)c1cnc(N)nc1)N1CCN=C21  remaining activity (kinase activity, inhibitor; 1 µM; relative to: untreated control): 102%
CC(=O)N1c2ccc(-c3ccc(CNC(=O)c4cn5cc(-c6cnc(N)nc6)nc(N6CCOCC6)c5n4)cc3)cc2CC[C@@H]1C  remaining binding (KINOMEscan; 10 µM): 90%
CNC1C[S+]2CC[S+]3CC[S+](C1)[Ru-4]321([N]=C=S)[n]2c3ccc(OC)cc3c3c4c(c5cc(F)c[n+]1c5c32)C(=O)NC4=O (stereo not shown)  remaining binding (KinomeScan; 0.1 µM; relative to: untreated): 95%
Cc1cnc2nc1Nc1cccc(c1)COC/C=C/COCc1cc(ccc1OCCN1CCOCC1)N2  percent of control (concentration not given): 84%
COc1cc(-n2cc3cc(F)cc(C(N)=O)c3n2)cc(Cl)c1C1CC(O)(CCO)Cc2ccccc21 (stereo not shown)  inhibition (enzyme activity, inhibitor; 10 µM): 2.02%
CCN1CCN(Cc2ccc(C(=O)Nc3ccc(C)c(NCc4cnc5[nH]ccc5c4OC)c3)cc2C(F)(F)F)CC1  remaining binding (binding, competition with immobilised ligand; 1 µM): 90%
CNC(=O)C[C@H](Cc1ccc(C#N)cc1)NC(=O)c1cc(-c2ccc(CN[C@H](C)c3ccc(C)cc3)o2)ccc1Cl  activity vs control (enzyme activity, inhibitor; 1 µM): 108%
NC(=O)C[C@H]1CCc2sc3ncnc(O[C@H]4CC[C@H](N5CCOCC5)CC4)c3c21  inhibition (enzyme activity, inhibitor; 10 µM): 3%
CCn1cc(C(=O)O)c(=O)c2c(N)c(F)c(NC3CCCCC3)cc21  inhibition (kinase activity; 0.1 µM, together with: ATP at Km): 3.3%
COc1cc(Nc2nccc(-c3cnn4nc(OC)ccc34)n2)cc(C(F)(F)F)c1  remaining binding (binding, competition with immobilised ligand; 1 µM): 97%
CN1CCN(Cc2ccc(NC(=O)c3cccc(C#Cc4cnc(N)c5ncccc45)c3)cc2C(F)(F)F)CC1  remaining binding (cell-free assay, competition with immobilised ligand; 0.5 µM): 69%
C=CC(=O)N1Cc2nc(-c3cc(-c4cc(Cl)cnc4Cl)c(F)cc3F)n(-c3ccncn3)c2C1  inhibition (cell-free assay, inhibitor; 1 µM): 7.9%
C=CC(=O)Nc1cc(-c2nn(C3CCN(CCNC(=O)[C@H](C)CCC45CC6CC(CC(C6)C4)C5)CC3)c3ncnc(N)c23)ccc1Oc1ccccc1  inhibition (inhibitor, KiNativ profiling; biochemical; 2 µM): 8.6%
Cc1cccc(O[C@H]2CCC[C@@H](C(C)CNCc3ccncc3)C2)c1 (relative stereo)  inhibition (kinase activity, kinome panel screening; 10 µM): -12%
C=C1CCCCCCCCCC(CO)C1=O (stereo not shown)  remaining signal (cell-free assay; 10 µM): 100%
COc1ccc(O)cc1-c1c[nH]c2ncc(-c3cncc(C(=O)N(C)C)c3)cc12  inhibition (binding, competition with immobilised ligand; 0.2 µM): -10.3%
C=CC(=O)Nc1cccc(-c2cnc3[nH]cc(C(=O)NC(C)(C)C)c3n2)c1  inhibition (kinase activity; 0.1 µM): 1% and 7%

A few entries again:
NC(=O)C[C@H]1CCc2sc3ncnc(O[C@H]4CC[C@H](N5CCOCC5)CC4)c3c21  inhibition (enzyme activity, inhibitor; 10 µM): 3%
CC(=O)N1c2ccc(-c3ccc(CNC(=O)c4cn5cc(-c6cnc(N)nc6)nc(N6CCOCC6)c5n4)cc3)cc2CC[C@@H]1C  remaining binding (KINOMEscan; 10 µM): 90%
